Results of several laboratories.
Parts stem from different laboratories: compare values within a part only. Changes are numbered by the printed parent chain.

Series 1 — effect on: binding; method: phage display NGS; form: peptide; setting: panning round 2; baseline: input library; endpoint: minimum log2 enrichment ratio
Target: UDP-N-acetylglucosamine--peptide N-acetylglucosaminyltransferase 110 kDa subunit (OGT, Homo sapiens, UniProt O15294)
Sequence of UniProt O15294 (whole entry, looked up): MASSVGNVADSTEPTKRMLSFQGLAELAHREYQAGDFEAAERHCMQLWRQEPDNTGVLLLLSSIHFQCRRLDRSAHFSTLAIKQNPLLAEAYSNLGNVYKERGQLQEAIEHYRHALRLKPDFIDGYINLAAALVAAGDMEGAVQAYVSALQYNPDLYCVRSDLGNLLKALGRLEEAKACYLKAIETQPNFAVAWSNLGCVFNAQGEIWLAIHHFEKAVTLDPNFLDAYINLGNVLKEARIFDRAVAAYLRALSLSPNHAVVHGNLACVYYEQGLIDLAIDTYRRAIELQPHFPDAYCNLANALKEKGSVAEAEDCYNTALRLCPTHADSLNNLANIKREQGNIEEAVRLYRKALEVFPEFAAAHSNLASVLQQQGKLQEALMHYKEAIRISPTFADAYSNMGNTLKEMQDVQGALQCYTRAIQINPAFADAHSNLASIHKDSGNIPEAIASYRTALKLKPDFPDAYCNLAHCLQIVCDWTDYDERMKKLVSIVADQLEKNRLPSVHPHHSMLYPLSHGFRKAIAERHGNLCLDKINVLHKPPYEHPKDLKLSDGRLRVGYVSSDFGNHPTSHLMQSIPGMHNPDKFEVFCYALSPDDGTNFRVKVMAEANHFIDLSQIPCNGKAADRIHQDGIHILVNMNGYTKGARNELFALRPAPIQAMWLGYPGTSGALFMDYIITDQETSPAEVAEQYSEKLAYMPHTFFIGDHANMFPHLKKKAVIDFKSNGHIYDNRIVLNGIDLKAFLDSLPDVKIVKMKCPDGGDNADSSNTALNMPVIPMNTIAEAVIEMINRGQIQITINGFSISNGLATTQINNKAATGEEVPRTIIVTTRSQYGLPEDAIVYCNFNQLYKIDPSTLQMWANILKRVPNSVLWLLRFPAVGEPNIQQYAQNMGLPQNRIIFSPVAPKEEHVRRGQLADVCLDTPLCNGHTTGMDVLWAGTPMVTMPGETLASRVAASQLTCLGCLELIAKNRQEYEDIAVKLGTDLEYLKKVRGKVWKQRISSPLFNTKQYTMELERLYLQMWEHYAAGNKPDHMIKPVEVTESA
SYYRHDHVPQFYNKW: 1.57
HPHNMMQHHGNRFDM: 2.82
HWFHHTEGWLPQHSR: 2.02
YEPMYLPQYQMIWNK: 4.91
HLRTHRVDHHYYVYD: 2.18
DTRWVPSYQIKYSYM: 2.35
HPHPPHPHGFDTHHV: 3.4
QVFPPEYWIEYNMV: 2.89
GFMPVYEIYFTRSDE: 3.18
GPMQMFQPYYQIDYA: 3.18
FNFTPYYQIAPGIRS: 2.88
SFLKYQPKYPIVYNV: 3.85
WERHYHHWSTYTPSA: 2.38
GRFNPVYQMVWEKTV: 3.6
AQFTPKYMIIPNDWL: 4.45
VWPPQNHVHSEMMRH: 2.16
HIHQHIHQEEQWDYH: 2.39
WPMKHLHDRWSSHPF: 2.29

Series 2 — target: CCNA2, cyclin fold, Cln2 fusion (human); method: yeast growth competition, sequencing; sample: yeast; setting: strong parent motif; baseline: not given; reading: higher = stronger binding; endpoint: normalised enrichment score
Parent: viral docking peptide; TSVRRALFTGGSD; partner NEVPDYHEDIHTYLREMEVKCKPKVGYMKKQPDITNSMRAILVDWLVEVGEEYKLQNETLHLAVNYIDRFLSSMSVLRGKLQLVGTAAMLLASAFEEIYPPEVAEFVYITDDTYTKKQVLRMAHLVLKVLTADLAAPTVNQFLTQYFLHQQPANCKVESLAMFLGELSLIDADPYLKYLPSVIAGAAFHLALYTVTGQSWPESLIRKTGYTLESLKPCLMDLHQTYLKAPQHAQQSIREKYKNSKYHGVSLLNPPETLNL
TSERRALFTGGSD [V3E]: 0.33
TSVRRALFAGGSD [T9A]: 5.88
TSVRRALFTFGSD [G10F]: 5.7
TSVRRWLFTGGSD [A6W]: 0.899
TSVRRALFHGGSD [T9H]: 6.06
TSVRRALFTDGSD [G10D]: 6.19
TSVRRARFTGGSD [L7R]: 0.458
TSVRRALFWGGSD [T9W]: 5.69
TSVRRALFYGGSD [T9Y]: 6.35
TSVRRILFTGGSD [A6I]: 4.55
TTVRRALFTGGSD [S2T]: 6.55
TSTRRALFTGGSD [V3T]: 4.89
TSVRRACFTGGSD [L7C]: 0.75
TSVRRALFTGFSD [G11F]: 6.01
TSVRRAWFTGGSD [L7W]: 0.541

Series 3 — target: CREBL2, bZIP domain (human); method: DHFR protein complementation; sample: yeast; baseline: wild-type JUN-FOS pair; reading: higher = stronger binding; endpoint: binding fitness
Setting: single substitutions, most at no-binding floor
Parent: JUN, bZIP domain (human); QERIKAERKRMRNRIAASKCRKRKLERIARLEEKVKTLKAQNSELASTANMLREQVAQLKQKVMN; partner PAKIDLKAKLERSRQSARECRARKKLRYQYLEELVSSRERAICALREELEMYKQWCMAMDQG
L52S: -1.58 natural log
E44Y: -1.51 natural log
L52G: -1.53 natural log
A49E: -1.51 natural log
R53G: -1.34 natural log
A49N: -1.49 natural log
L45P: -1.54 natural log
S47H: -1.45 natural log

Series 4 — method: RNA Bind-n-Seq; form: RNA; sample: in vitro; tested at: 1 µM; setting: whole 134-nt RNA, ends assumed; together with: 150 mM KCl; baseline: input library; reading: higher = stronger binding; endpoint: log2 enrichment
Target: Ras GTPase-activating protein-binding protein 1, C-terminal RGG region (G3BP1, Homo sapiens, UniProt Q13283)
Sequence of UniProt Q13283 (whole entry, looked up): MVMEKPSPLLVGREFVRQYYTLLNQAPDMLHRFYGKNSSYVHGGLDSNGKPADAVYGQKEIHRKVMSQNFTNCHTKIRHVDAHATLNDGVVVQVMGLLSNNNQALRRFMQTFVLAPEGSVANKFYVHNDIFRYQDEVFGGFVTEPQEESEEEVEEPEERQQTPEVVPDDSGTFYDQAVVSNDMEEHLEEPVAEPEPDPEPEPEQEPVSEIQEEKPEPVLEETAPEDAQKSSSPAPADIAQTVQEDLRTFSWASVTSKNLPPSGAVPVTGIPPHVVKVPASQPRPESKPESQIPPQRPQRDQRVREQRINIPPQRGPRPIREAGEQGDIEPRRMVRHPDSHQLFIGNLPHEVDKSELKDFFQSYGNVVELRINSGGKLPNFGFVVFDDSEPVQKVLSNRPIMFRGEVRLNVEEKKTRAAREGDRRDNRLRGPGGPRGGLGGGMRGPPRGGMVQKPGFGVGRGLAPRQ
Shared flanks, not repeated: GGGAGUUCUACAGUCCGACGAUC … UGGAAUUCUCGGGUGUCAAGG
AGUCCUGUGCUACACAUCGUAUGUACCGAAUCGGGAAAAAGGGUUUGGGAAAAAGGGAAAGUAUUAUGUUACGCCGUUCGGAUCUGCACU: 0.234
UCCUCAAGUCCUGUGCUACACAUCGUAUGUACCGAAUCGGAGGGAGGAGGGAAAGUAUUAUGUUACGCCGUUCGGAUCUGCACUUCCAGC: -0.996
ACCAUGCAGGUGGGCAUCUUUGGGAAGUGGGGCAAGGGGGGGAUAGGGAGGGGGGUAACAUUUUGGGAACAGGUGGUCCCAGGUCGUUUC: 2.14
AAGUCCUGUGCUACACAUCGUAUGUACCGAAUCGGAAAAAAAGGAGGAAAAAAAGGAAAGUAUUAUGUUACGCCGUUCGGAUCUGCACUU: -1.92
AGUCCUGUGCUACACAUCGUAUGUACCGAAUCGGGGUUUGGGGAAAGGGGAAAGGGGAAAGUAUUAUGUUACGCCGUUCGGAUCUGCACU: 4.1
CUGUGCUACACAUCGUAUGUACCGAAUCGGGAAAAAAAGGGAAAAAAAGGGGAAAAAAAGGGAAAGUAUUAUGUUACGCCGUUCGGAUCU: -1.18
AAGUCCUGUGCUACACAUCGUAUGUACCGAAUCGGGAGGGUUUUUUUGGGUUUGGGAAAGUAUUAUGUUACGCCGUUCGGAUCUGCACUU: 0.0871
CAAGUCCUGUGCUACACAUCGUAUGUACCGAAUCGGGAAAAAGGGUUUGGGAGGGAAAGUAUUAUGUUACGCCGUUCGGAUCUGCACUUC: 1.96

For quick reference, copied from above (series 3):
E44Y: -1.51 natural log
L45P: -1.54 natural log
R53G: -1.34 natural log
L52G: -1.53 natural log
A49E: -1.51 natural log
